Measured values collected from several papers.
Compare with care: the assays were run in different laboratories. Values after ≈ are worked out from the molar mass of the structure shown.
Organism: Streptococcus pneumoniae

CC[C@H]1OC(=O)[C@H](C)[C@@H](O[C@H]2C[C@@](C)(OC)[C@@H](O)[C@H](C)O2)[C@H](C)[C@@H](O[C@@H]2O[C@H](C)C[C@H](N(C)C)[C@H]2O)[C@](C)(O)C[C@@H](C)CN(C)[C@H](C)[C@@H](O)[C@]1(C)O
sensitive strains (community-acquired pneumonia patients; Fine score 70 or more): 100%

CN(C)c1cc(CNCC(C)(C)C)c(O)c2c1C[C@H]1C[C@H]3[C@H](N(C)C)C(O)=C(C(N)=O)C(=O)[C@@]3(O)C(O)=C1C2=O
MIC (157E; 50% mouse serum): < 0.06 µg/mL

CC[C@H]1OC(=O)[C@H](C)[C@@H](O[C@H]2C[C@@](C)(OC)[C@@H](O)[C@H](C)O2)[C@H](C)[C@@H](O[C@@H]2O[C@H](C)C[C@H](N(C)C)[C@H]2O)[C@](C)(O)C[C@@H](C)C(=O)[C@H](C)[C@@H](O)[C@]1(C)O
sensitive strains (community-acquired pneumonia patients; Fine score below 70): 100%

O=C(CCc1ccccc1)C[C@@H]1C[C@@H](c2ccccc2)c2c(cc(/C=C/c3ccccc3)oc2=O)O1
MBIC90 (biofilm formation; no inhibition up to value): > 50 µM

Cc1ccc(S(=O)(=O)N2C(=O)CSC2c2ccc([N+](=O)[O-])cc2)cc1 (centres unmarked)
MIC (broth microdilution; ATCC 49619): 64 µg/mL (≈ 169 µM)

CC1(C)S[C@@H]2[C@H](NC(=O)[C@H](N)c3ccc(O)cc3)C(=O)N2[C@H]1C(=O)O
sensitive strains (community-acquired pneumonia patients; Fine score 70 or more): 100%

Cc1ccc(C2SCC(=O)N2S(=O)(=O)c2ccc(C)cc2)cc1 (centres unmarked)
MIC (broth microdilution; ATCC 49619): > 256 µg/mL

CN(C)c1cc(NC(=O)CNC(C)(C)C)c(O)c2c1C[C@H]1C[C@H]3[C@H](N(C)C)C(O)=C(C(N)=O)C(=O)[C@@]3(O)C(O)=C1C2=O
MIC (157E; 50% mouse serum): < 0.06 µg/mL

CC(=O)N[C@H]1[C@H]([C@H](O)[C@H](O)CO)OC(C(=O)O)=C[C@@H]1O
MBIC90 (biofilm formation; no inhibition up to value): > 50 µM

Cc1ccc(S(=O)(=O)N2C(=O)CSC2c2ccc(F)cc2)cc1 (centres unmarked)
MIC (broth microdilution; ATCC 49619): 64 µg/mL (≈ 182 µM)

CC(=O)NC[C@H]1CN(c2ccc(N3CCOCC3)c(F)c2)C(=O)O1
MIC range (broth microdilution; clinical isolates): 0.25 to 1 µg/mL (≈ 0.741 to 2.96 µM)
